Measured values collected from several papers.
A part holds a random share of what one study measured.

Block 1 — technique: EMSA with sequencing; form: double-stranded DNA, one strand shown; medium: in vitro; concentration: 10 and 20 nM; reference: negative control set to 0; reading: higher = stronger binding; measurement: normalised bound fraction
Target: Hepatocyte nuclear factor 3-alpha (Foxa1, Mus musculus, UniProt P35582, residues 1-468, full length assumed)
Setting: whole designed probe, mean of two concentrations, ends assumed
Constant ends, left off below: GTGAGCGGTGCCCATTGATGGGGAAC … TTTCACTGGGATCGTGGGGAC
Construct (chain): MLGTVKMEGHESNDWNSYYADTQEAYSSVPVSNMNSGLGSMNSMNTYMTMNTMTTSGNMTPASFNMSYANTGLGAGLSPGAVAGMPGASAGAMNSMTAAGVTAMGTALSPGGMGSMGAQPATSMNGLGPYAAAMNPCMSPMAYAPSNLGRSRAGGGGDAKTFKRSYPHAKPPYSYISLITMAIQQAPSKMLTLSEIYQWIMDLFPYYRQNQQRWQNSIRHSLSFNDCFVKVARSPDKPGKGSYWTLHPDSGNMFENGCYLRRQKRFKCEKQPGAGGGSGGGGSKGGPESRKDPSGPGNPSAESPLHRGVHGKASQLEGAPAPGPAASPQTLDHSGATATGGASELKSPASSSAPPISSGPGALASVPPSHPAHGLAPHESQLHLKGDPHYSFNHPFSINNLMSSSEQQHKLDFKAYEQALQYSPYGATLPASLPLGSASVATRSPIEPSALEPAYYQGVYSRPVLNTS
TAGCTTTGAAAACTGTGAAAGGGGATAACCCATAATTTCTTTTTTGATAAAATGACATGCCCCAGGGGTGAGCTAGGTTTGCTTTGACAAGAAAGTAAACAAGGAGCAAGTGAAAGGAAATGAAAAATATATTACCAAACTCTCATCTTTCAGCTGCTGATGCTGCCTATTGTCAGCTGCAGCAGAGTGTAGA: 0.365 ratio
TTAGACCCTTTAAGTAAATTGCAAACAGTTCCCCCTGTGTGAAGCATTGTCTAGCCTACCAAACTGCCTGAAACAATCGTTGACATTTCTTGTGTAAATAACAGCAGTGGATTCAGCGCTTCCAAGAATGGGAGTTGAAAAAATAATGAACTATGTTTTTTTCAAGATAAAACACACTGTGCTCTCCAGAAAT: 0.46 ratio
GACAGTACATGTTTTAGGATTTTTGGACCACACAGTCTCTGTCACAATGACTCAGCTTTGCCATTGTAGCGTGCAAACAGCCACAAACCATATGCAAACAAAGAGCGTCTGGTTGTATGCCAATAAAACTTTATTTACAAAAGCAGGAGGACAGTGGAGTTGGCTTGCAGACAGTCATTTGCAGAGCCCTGAT: 0.443 ratio
TCAGGTTGCAGTGAGCTCTGATCGTGCCACTGCACTCCAGCCTGTGTGACAGAGCAAGGGCCTGTCTCTAAAAACAAAACAAAACAAAGCAAAACAATCTTGAGAAGTGCTGATTCATACCTTGCAAAGAGGTTTCATTCGGCAGCAAGTTGAAATTATCTACTGGTTTGTACATGAGCTAGCACTTCCTCTT: 0.0239 ratio
ATCTTCCCCCTCTTCCTTGCCCCACCAGCTCACCTTCCCGGGTTATTTGCAGATAGGAAAATAAATAAAGCCGGCATTCGTTAACGCAGTTCTGGCGCAAACTGCTGTTTGCTCTGCATGAATCATGGTCCTTACGCGACGCCAGGCTCCGGGAGAGCAAAGCACCGTGTCAGGCGCATGATCCGGGCTCGCC: 0.354 ratio

Block 2 — technique: protein binding microarray; form: double-stranded DNA, one strand shown; medium: in vitro; concentration: not given; reference: not given; reading: higher = stronger binding; measurement: E-score
Target: Histone acetyltransferase KAT6A, winged helix 2, GST fusion (KAT6A, Homo sapiens, UniProt Q92794, residues 85-181)
Setting: 8-mer, flanks averaged, mean of 2 arrays, mostly near background
Residues (chain): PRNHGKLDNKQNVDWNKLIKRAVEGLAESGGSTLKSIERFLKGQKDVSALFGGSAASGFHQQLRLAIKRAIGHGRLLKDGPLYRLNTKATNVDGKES
CAGAATTC: 0.139
ATCCAACC: 0.0385
AAACTGTT: -0.0466
AAAGACGG: 0.0799
ACTGGGAC: 0.0108
ACGAAGAA: 0.105
CAGATCCC: -0.0509
ACAGAAAA: 0.0929
ACCTCCCT: 0.0704
ATAAGGTA: -0.172
GACTCGAC: -0.0901
AAGTAACC: -0.201
ATTAGAGG: -0.0569
TCTTCGCA: -0.0161
CCCTCAAA: 0.0624
TCTACAGA: 0.0166
GCGCTAGA: 0.0167
CAAGTGCC: -0.0074
CTAGTTGC: 0.106
CTCCTAGA: -0.191
ACGTCATA: -0.136
CATCCGAG: 0.0115
AATCGGTC: -0.00542
CACTGACG: 0.137
ATGCTAGA: 0.0423

Block 3 — technique: RNA Bind-n-Seq; form: RNA; medium: in vitro; concentration: 200 nM; setting: whole 134-nt RNA, ends assumed; added: 150 mM LiCl; reference: input library; reading: higher = stronger binding; measurement: log2 enrichment; all molecules: 7-deaza-guanosine replaces G
Target: Fragile X messenger ribonucleoprotein 1, C-terminal low-complexity region (Fmr1, Mus musculus, UniProt P35922)
Constant ends, left off below: GGGAGUUCUACAGUCCGACGAUC … UGGAAUUCUCGGGUGUCAAGG
ACCAUGCAGGUGGGCAUCUUUAAAAAGUGGGGCAAGGGGGGGAUAGGGAGGGGGGUAACACUUUGGGAACAGGUGGUCCCAGGUCGUUUC: 1.37
CCUCAAGUCCUGUGCUACACAUCGUAUGUACCGAAUCGGGGCGGCGGCGGGGAAAGUAUUAUGUUACGCCGUUCGGAUCUGCACUUCCAG: -0.55
GUCCUGUGCUACACAUCGUAUGUACCGAAUCAAAGUGUGUGUGUGUGUGUGUGUGAAAAAAGUAUUAUGUUACGCCGUUCGGAUCUGCAC: -0.564
ACCAUGCAGGUGGGCAUCUUUGGGAAGUGGGGCAAGGGGGGGAUAGGGAGGGGGGUAACACUUUGGGAACAGGUGGUCCCCGGUCGUUUC: 1.45
UAACUUUAGAGGAGGAUCUGAUGGAUAUGGCAGUGGACGUGGAUUUGGGGAUGGCUAUAAUGGGUAUGGAGGAGGACUUGGAGGUGGCAA: 0.97
UCAAGUCCUGUGCUACACAUCGUAUGUACCGAAUCGGUUGGGUUGGGGUUGGGGAAAGUAUUAUGUUACGCCGUUCGGAUCUGCACUUCC: -1.04
CUCAAGUCCUGUGCUACACAUCGUAUGUACCGAAUCGGGAGGGAGGGAAAGGGAAAGUAUUAUGUUACGCCGUUCGGAUCUGCACUUCCA: -0.345

Block 4 — technique: universal PBM; form: double-stranded DNA, one strand shown; medium: in vitro; concentration: 600 nM; reading: higher = stronger binding; measurement: E-score
Target: Sal-like protein 4, full length isoform A (SALL4, Homo sapiens, UniProt Q9UJQ4, residues 1-1053)
Chain of UniProt Q9UJQ4 (whole entry, looked up): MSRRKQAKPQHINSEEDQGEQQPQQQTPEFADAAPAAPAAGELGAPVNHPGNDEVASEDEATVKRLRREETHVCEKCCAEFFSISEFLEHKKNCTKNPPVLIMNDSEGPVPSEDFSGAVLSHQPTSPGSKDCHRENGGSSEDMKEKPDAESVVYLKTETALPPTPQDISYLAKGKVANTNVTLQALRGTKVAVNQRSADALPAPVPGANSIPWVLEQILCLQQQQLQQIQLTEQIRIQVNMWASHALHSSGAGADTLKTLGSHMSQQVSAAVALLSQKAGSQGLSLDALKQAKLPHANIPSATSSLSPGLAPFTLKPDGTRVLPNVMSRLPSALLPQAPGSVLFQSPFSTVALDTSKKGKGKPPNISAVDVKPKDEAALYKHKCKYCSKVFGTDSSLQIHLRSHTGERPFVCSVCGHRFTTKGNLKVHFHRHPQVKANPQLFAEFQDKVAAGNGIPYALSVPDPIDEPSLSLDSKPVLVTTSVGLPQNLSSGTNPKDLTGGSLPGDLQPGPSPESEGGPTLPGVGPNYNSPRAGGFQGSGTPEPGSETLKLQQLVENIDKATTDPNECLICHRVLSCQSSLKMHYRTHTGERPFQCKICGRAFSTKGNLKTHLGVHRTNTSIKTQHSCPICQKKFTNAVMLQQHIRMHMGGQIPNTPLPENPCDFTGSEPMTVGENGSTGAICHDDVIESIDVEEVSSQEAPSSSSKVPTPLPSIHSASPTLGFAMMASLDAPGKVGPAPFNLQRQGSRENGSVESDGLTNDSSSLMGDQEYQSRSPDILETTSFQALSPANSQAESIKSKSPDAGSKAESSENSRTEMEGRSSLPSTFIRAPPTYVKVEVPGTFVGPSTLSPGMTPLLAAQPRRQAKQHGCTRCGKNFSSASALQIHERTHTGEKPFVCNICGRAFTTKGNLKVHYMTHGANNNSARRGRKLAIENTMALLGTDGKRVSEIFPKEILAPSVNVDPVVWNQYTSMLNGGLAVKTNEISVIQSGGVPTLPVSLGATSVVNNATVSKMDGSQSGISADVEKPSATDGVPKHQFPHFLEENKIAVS
Setting: 8-mer, flanks averaged, mean of replicates
AGAATAAC: 0.189
TGATAGCA: 0.146
AGTCGTGC: -0.23
CCACTAAA: -0.00392
AGCATTGC: -0.0262
ACGCGCGC: -0.239
CGAACAAC: 0.216
GGCGTGGA: -0.263
CGGGCCAC: -0.31
ATGGCTTC: 0.0898
CCCGCCCC: -0.0997
ACGGCTTG: -0.161
TCAACTGA: 0.117
CCGCTACA: -0.0833
AATACAAG: 0.295
CGAGGTAC: -0.215
ATCCGGAA: 0.0529

Block 5 — target: UBE2T UBC core domain (UniProt Q9NPD8); technique: yeast two-hybrid; medium: yeast; setting: mostly zero background; reference: not given; reading: higher = stronger interaction; measurement: lacZ reporter activity
B1: TRIM10 RING domain (UniProt Q9UDY6); chain SVTSLADEVNCPICQGTLREPVTIDCGHNFCRACLTRYCEIPGPDLEESPTCPLCKEPFRPGSFRP
B2: PEX2 RING domain (UniProt P28328); chain DNTLATSGKECALCGEWPTMPHTIGCEHIFCYFCAKSSFLFDVYFTCPKCGTEVHSLQPLK
B3: PHF7 RING domain (UniProt Q9BWX1); chain IQHGHVGEESCILCCEDLSQQSVENIQSPCCSQAIYHRKCIQKYAHTSAKHFFKCPQCNNRKEFPQEML
B4: RNF4 RING domain (UniProt P78317); chain TGLRPSGTVSCPICMDGYSEIVQNGRLIVSTECGHVFCSQCLRDSLKNANTCPTCRKKINHKRYHP
B5: RNF175 RING domain (UniProt Q8N4F7); chain LPTRSLSDNICAVCGQKIIVELDEEGLIENTYQLSCNHVFHEFCIRGWCIVGKKQTCPYCKEKVDLKRMIS
B6: RFPL2 RING domain (UniProt O75678); chain MAALFQEASSCPVCSDYLEKPMSLECGCAVCLKCINSLQKEPHGEDLLCCCSSMVSRKNKIRR
B7: ANKIB1 RING domain (UniProt Q9P2G1); chain LSPGDLDTSLCDICMCSISVFEDPVDMPCGHDFCRGCWESFLNLKIQEGEAHNIFCPAYDCFQLVPVDIIE
Construct (chain): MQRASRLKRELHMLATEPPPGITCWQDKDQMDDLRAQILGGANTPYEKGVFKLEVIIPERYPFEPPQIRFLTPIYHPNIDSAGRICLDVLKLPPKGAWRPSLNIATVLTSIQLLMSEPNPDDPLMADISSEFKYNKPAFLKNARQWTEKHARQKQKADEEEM
SYEDKSNDFVCPICFDMIEEAYMTKCGHSFCYKCIHQSLEDNNRCPKCNYVVDNIDHLY (COP1 RING domain (UniProt Q8NHY2)): 0
B1 (TRIM10 RING domain): 0
B2 (PEX2 RING domain): 0
B3 (PHF7 RING domain): 0
KIKDLNEHIVCCLCAGYFVDATTITECLHTFCKSCIVKYLQTSKYCPMCNIKIHETQPLL (PCGF1 RING domain (UniProt Q9BSM1)): 0
B4 (RNF4 RING domain): 3290
B5 (RNF175 RING domain): 0
MANWVFCNRCFQPPHRTSCFSLTNCGHVYCDACLGKGKKNECLICKAPCRTVLLSK (RNF212 RING domain (UniProt Q495C1)): 0
B6 (RFPL2 RING domain): 0
B7 (ANKIB1 RING domain): 0
